# Experimental data pooled from the literature.
# A part holds a random share of what one study measured. Positions count from the first letter of the parent shown.

# Block 1
# Target: RING finger protein unkempt homolog, zinc fingers 1-6, GST-SBP tag (UNK, Homo sapiens, UniProt Q9C0B0, residues 30-357)
# Sequence of UniProt Q9C0B0 (30-357, looked up): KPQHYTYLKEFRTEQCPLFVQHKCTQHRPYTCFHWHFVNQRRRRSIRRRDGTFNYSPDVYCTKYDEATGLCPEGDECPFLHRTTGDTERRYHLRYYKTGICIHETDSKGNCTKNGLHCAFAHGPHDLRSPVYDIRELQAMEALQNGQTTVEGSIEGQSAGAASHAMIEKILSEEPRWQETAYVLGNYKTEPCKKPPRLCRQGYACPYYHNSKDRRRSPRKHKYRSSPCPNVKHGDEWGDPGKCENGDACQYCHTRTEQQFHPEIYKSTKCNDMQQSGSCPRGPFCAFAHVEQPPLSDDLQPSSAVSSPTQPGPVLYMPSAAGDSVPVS
# Method: RNA Bind-n-Seq
# Molecule type: RNA
# Sample: in vitro
# Tested at: not given
# Setting: RNA with constant flanks, human and mouse sites, ends assumed
# Reference: input RNA pool
# Direction: higher = stronger binding
# Shared flanks, not repeated: GGGAGUUCUACAGUCCGACGAUC … CAACAGAGGAUUGAGCAUCA
Sequence,bound/input enrichment [ratio]
ACUGAUAUCAAGAAUAUAAAUGCAAAACACAAGAACAAUAAAGUGAAUGUAGUAUUGCAAAAUUUCAUGUACACCAUGUUAAGAGAUAGCAAUGCAACCGCAGCCAAGAUGUCUUUAGAU,0.217
AGUGGUGCCACCUACCCCAACAUCCCCCUCUCUUCUCCCUUGCCUGGAGUACCCAAGCCUAUUUUUGCAACAGUUGAUGGACAGGAAAAGUUUGAAACCAAAGUUACCACUCUGGACAAU,0.573
UCUACUUCCUCCUCCUCCUCUGAAGACGACUGUUUUGAGAGGAGAACAAAAAGGAACCGAAAUAGAGCUAUUAACAGGUGCCUCCCACUAAAUUUUCGGAAAGAUGAAAUAAGAGGGAUU,0.19
GGUCAUGACCUGCGCAUACGCUCCUUCUGGGAAUUAUGUGGCCUGUGGUGGCCUGGAUAACAUCUGCUCCAUUUACAACCUGAAAACUCGUGAAGGGAAUGUGCGUGUGAGUCGUGAGCU,0.204
GCAGAAGUGAACAAAUUGAGAAGACAAAUCACUCAGAAGAAAAAUGAAAAGGAACAAGAAAGAAGAUUGCAGCAGGCCCUGUUAAGCAGACAGAUGCCAUCCGAAAGUCUGGAGCCAGCG,0.469
AGCUCCAGUUUGGCAGUUGUGGAUUUAAUUGAUGCCAUCCAGCCAGGCUGUAUAAACUAUGACCUUGUGAAGAGUGGCAAUCUAACAGAAGAUGACAAGCACAAUAAUGCCAAGUAUGCA,0.165
CAAAAAAGCUAUGAGGAAGAGCUCCUCCCCUUCCUUGAGUAACUGCAACUCCGAUCUUGCUAGCAAAAUAUUUGGAAUUCCACUUGAUGAGCUGCAGCAGGGAGGACAUCCAGACAAUGA,0.47
GGAUUUUUUUCUGUGUAAAUCAUCAAGUAUAAGAAGAAACUAUGGGACUCUGAGCCUUGCUUUAGAGAAUUUACAGUGGACAAAUAGGUGUCAUCAAACCAGUUUUUAAUCAUUCUGACU,4.31
GACGUAUUUUCUGUGUAAUUCUCUUGUUCUUAUACUACCUGCAUUAUCUUUAUGUCACUGUAGCAAAUGCCUAUCAUAAGUCAACUCUCAGGAGCCAUAAUGGGACAAGCUAAUAACUAG,0.146
CAGCUCUCCCGGGGGGACUCUGGGACCCGGGACACUGUUCUCAAGCUGCUACUGAAUGGAGCCCGCCAUCUGGGUUAUACCCUUUGUAAACAAAUAGGUACCCUGCUGGCCGAGCUGCGG,0.281
CCCACGGCCGUUGGUCCGGGCGGGUGAGGGAGAAAGUGAGACUUGGUGUCAUCACCAUCCAUUGUCAGAAGGGGAGGAAAUUGGAAUCCAGCAGCGGCGAGCAGCAGCUGGGCGGUCACA,0.236

# Block 2
# Target: Histone acetyltransferase KAT6A, both winged helices, GST fusion (KAT6A, Homo sapiens, UniProt Q92794, residues 1-181)
# Method: protein binding microarray
# Molecule type: double-stranded DNA, one strand shown
# Sample: in vitro
# Tested at: not given
# Setting: 8-mer, flanks averaged, mean of 2 arrays, mostly near background
# Reference: not given
# Direction: higher = stronger binding
# Residues (chain): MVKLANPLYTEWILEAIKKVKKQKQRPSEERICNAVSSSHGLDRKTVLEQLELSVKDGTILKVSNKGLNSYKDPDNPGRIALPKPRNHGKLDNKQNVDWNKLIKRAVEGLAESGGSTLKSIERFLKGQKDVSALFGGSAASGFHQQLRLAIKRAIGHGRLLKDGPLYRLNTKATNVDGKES
Sequence,E-score
ACACCACT,-0.152
CCCTAACA,-0.152
GACATTAC,-0.0363
AATGAGAG,-0.0909
AAATTCAG,-0.0667
GGCCGCGA,0.306
CCAAGTGC,-0.0735
GCCGCTTA,0.197
CACTCTTC,-0.153
CAGCTGGA,-0.18
ACAGCTAT,-0.159
AGTAACCA,-0.124
GGGTGGGA,-0.0717
TGCGCTAA,0.265
CCTCAAGA,-0.128
CAGCTTTC,0.0155
CAGCGTTC,0.0301
CAGAATAG,-0.128
GCATAGAA,-0.0344
TAATTGCA,-0.0323
TCCGGAGA,0.127
GCGGGAAA,0.268

# Block 3
# Target: RNA binding protein fox-1 homolog 2, RRM domain, GST-SBP tag (RBFOX2, Homo sapiens, UniProt O43251-10, residues 100-194)
# Method: RNA Bind-n-Seq
# Molecule type: RNA
# Sample: in vitro
# Tested at: 365 nM
# Setting: natural RNA segment, single round, ends assumed
# Reference: no-protein control
# Direction: higher = stronger binding
# Shared flanks, not repeated: GGGAGUUCUACAGUCCGACGAUC … UGGAAUUCUCGGGUGCCAA
# Construct (chain): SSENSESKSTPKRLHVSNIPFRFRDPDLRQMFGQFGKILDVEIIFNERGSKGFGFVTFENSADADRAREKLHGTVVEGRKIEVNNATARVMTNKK
Sequence,RBNS enrichment (R)
CUCACCCCUAACCCCCAAUCACAAAGAAAGGUAAUAAAAAUAUAAAUUCCAAGGAUUAGGAAAAGUGGAAUGUUUUUGCCCCUCAAAGUCCACCCCCUAGACAGCAAUGC,0.625
CCCAAGCCCUGCAUCCCCACAUGCGGGGCAGAGGCCCUUCUCUCCGCCAAAUGUCUACACAGUAUACACAGGACAUCGUUGCUGCCGCCGUGACUGGUUUUCUGUCCCCA,0.675
CCAGCCCUGCUUGCUUUUGUGAACGUCGUGUGAGUACACCGAGGUGUUGCAGCUUUCCUUCCCUCUAGCUCAGGAGGCCUGGCCUGAGCCAGGUUGGAGCUUAAAUUGCU,0.795
CAAGUCCCCAUCAUUGCCGGGAGUGUGGAUUCUAGCAGCAGAGCUGGAAACGAUGAGAUUCCACAGACCCCCUAUGGGGGACCCACAACCCAAGACCGCAGACUGGGUGU,0.384
CUCAAGGCAGUAUGAUAUACCCUAGUCUUUGGUGCCUCUAGUAUAUGUGACCAGGUGUCGUCCUGCAUGUAAAUCUCCGAGCUGAGUCUGACUCACAGCCCAUGCUGUCA,0.873
UGUAUGGCUUACAUCCUGGAAAUUACCUGAUAAUAAAGCAAGUAAAGGUGUAAGGUUUCCUAAGGGAUUACAACACAGUGGUUUCCUGGUCUCUCUCCCUGUCAUCAAUC,0.341
UUCUUCAUGGAGUUCUCAGAACCUUUCAGGGUUCAGGAGGCUCCCCUGAGAAUAGACAGGAGAGGGUCAGAAGCAGACGUCCUCCUUUUCUUGUGAUAACCACGCUACUU,0.36
GUGACAGAGAGAACCUCAAAAAUGUAGCUGGAAAGGACUUUAAAACUCAUCCAAUGCAGAGUCUCGCUCCUAGCUGCCUACCCGAGAUCCCUUGCUUCAACCUCCCCAGG,0.362
AUGAUAAGUAAAGGCCCCUAGUCCUGCACAGGAGGCUGAGGCAGGAGAAUUGUUUAGUCCUGGAAUAGAUAGUAAAAGCCUGUCUCAGAAUACACAAGCAGAGAAGGAUC,0.39
CUUUCAUCUAGUACCUGGACCAUUCUCCCUAGACCCUUGCCUUCCUCCCUGGCCAACACAUACUUGCAGUGUCAGAUCUGGUACAUGAAUGGCCAUUCUACCCAGAUAGG,0.265
CCACUGUGGAGCUUCCCUGGGGUGCCCGGGCAAGUCUUGCCAGCAAGGCAGCAAGACUUCCUGCUAUCCAAGCCCAUGGAGGAAAGUUACUGCUGAGGACCCACCCAAUG,0.299
AUUAGUGGGGGACUGAGUUCAGGUUACCAGAACCAGUACCUCAGUAUUCUUUUUCAACAUGUAGGGCAAGAGGAUGAAGGAAGGGGCUAUCCUGGGACCUCCCCAGCCCA,0.29

# Block 4
# Target: ABI1, truncated, D143A, DHFR fusion (Arabidopsis thaliana)
# Method: DHFR PCA, deep sequencing
# Sample: yeast
# Setting: methotrexate growth selection, single substitutions
# Together with: (+)-ABA 2500 µM
# Reference: wild-type fitted maximum
# Direction: higher = stronger binding
# Starting sequence: PYL1, truncated, DHFR fusion (Arabidopsis thaliana); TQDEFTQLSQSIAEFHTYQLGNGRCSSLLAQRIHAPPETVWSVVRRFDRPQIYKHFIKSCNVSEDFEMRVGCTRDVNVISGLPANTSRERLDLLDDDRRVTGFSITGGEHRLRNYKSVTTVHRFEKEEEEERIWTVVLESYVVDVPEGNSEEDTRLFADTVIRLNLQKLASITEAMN
Change,relative binding score
L93I,107%
S11Y,88.8%
V70D,87.5%
D95V,78%
G148C,91.7%
E139I,92.2%
S27K,86.9%
F56Q,51.2%
V70F,79.2%
L91R,38.2%
D95M,93.9%
C25D,10.2%
P83Y,49.9%
I162S,58.8%
G81I,33.8%
L156H,95.8%
N165P,-3.99%

# Block 5
# Target: Sal-like protein 4, full length isoform A (SALL4, Homo sapiens, UniProt Q9UJQ4, residues 1-1053)
# Sequence of UniProt Q9UJQ4 (whole entry, looked up): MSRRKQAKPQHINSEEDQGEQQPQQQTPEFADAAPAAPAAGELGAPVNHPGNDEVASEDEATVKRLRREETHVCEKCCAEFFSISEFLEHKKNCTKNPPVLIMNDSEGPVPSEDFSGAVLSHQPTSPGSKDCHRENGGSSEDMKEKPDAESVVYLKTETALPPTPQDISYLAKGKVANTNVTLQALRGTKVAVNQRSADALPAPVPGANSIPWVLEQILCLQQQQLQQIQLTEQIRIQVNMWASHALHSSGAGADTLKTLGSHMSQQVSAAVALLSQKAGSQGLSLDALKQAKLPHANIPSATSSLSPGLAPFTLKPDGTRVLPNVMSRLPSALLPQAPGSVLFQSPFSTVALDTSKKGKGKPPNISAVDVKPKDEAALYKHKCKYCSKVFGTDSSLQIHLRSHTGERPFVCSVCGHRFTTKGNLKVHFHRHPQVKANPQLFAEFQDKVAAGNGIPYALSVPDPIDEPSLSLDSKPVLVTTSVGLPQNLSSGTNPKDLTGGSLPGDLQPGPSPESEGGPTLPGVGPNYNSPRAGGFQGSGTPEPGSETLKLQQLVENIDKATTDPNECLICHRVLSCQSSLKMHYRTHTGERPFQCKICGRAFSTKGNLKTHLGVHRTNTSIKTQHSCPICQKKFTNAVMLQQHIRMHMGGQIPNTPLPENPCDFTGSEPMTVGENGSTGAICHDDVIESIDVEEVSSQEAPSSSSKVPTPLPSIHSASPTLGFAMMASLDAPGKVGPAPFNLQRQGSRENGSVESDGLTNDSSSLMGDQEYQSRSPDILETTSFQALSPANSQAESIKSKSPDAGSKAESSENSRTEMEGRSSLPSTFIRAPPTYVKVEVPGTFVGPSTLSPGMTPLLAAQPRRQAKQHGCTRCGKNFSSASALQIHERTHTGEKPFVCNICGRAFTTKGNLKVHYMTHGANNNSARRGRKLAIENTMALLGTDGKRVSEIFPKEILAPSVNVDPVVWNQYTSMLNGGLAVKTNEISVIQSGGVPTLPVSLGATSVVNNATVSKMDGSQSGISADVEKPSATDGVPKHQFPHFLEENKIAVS
# Method: universal PBM
# Molecule type: double-stranded DNA, one strand shown
# Sample: in vitro
# Tested at: 600 nM
# Setting: 8-mer, flanks averaged, mean of replicates
# Direction: higher = stronger binding
Sequence,E-score
TTCGGAAA,0.0209
ATGGCGTA,-0.0327
CATACGGA,-0.0393
GAACGAGA,0.0235
GGGCTCCA,-0.297
AATTTCTC,0.159
AATAAACA,0.376
GCTGACCC,-0.223
CAGAAGGA,-0.0276
AGCGAAAT,0.111
CACTGATA,0.0933
ATTCTGTC,-0.0212
ATCATTGG,0.171
CCATCTCG,-0.319
ACGAAGCG,-0.215
GTTTTTCA,0.138
AGTAGATA,0.327
CATCCTCA,-0.0657

# Block 6
# Target: CRIPT, C-terminal peptide
# Method: DHFR complementation, deep sequencing
# Sample: yeast
# Setting: single substitutions, model-inferred values
# Reference: wild type
# Direction: higher = weaker binding
# Starting sequence: ERBIN, PDZ domain 1 (human); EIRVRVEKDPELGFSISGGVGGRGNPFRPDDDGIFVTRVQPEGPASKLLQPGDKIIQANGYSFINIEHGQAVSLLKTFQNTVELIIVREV; partner TKNYKQTSV
Change,binding free energy change [kcal/mol]
I16T,1.4
V4T,0.351
G18Q,1.71
V90T,0.0265
F78D,0.178
I64V,0.0865
F35H,0.724
A45V,0.659
S15P,0.426
G33Y,1.49
E1V,0.156
V36T,0.724
T77Y,0.179
I16M,0.627
I2T,0.164
L74C,0.101

# Block 7
# Target: CCND1, cyclin fold, Cln2 fusion (human)
# Method: yeast growth competition, sequencing
# Sample: yeast
# Setting: weak parent motif
# Reference: not given
# Direction: higher = stronger binding
# Starting sequence: DOT1L docking peptide (human); SEAKRRIVFTITT
Change,normalised enrichment score
K4A,0.24
R5A,0.143
T10A,0.155
I11A,0.0702
S1A,0.45
F9A,0.00427

# Other studies, line by line
Molecule,target,assay,system,setting,scale,quantity,value
"PhoQ, residues 284 288 289 292 302 303 SVHLDV","PhoP, residues 12 14 15 18 19 LHSVW (Escherichia coli, UniProt P23836)","Sort-seq, refers to: YFP reporter",E. coli,"PhoQ-PhoP variant library, together with: 10 µM Mg2+","reference: high Mg2+ state, higher = stronger signaling",fold induction,3.09

# Some of these lines once more (block 5):
Sequence,E-score
CCATCTCG,-0.319
AGTAGATA,0.327
ACGAAGCG,-0.215
AATTTCTC,0.159
GTTTTTCA,0.138
AGCGAAAT,0.111
